Measurements of several laboratories.
Numbered parts are unrelated; each lists some results of a single study.

Set 1
Target: RING finger protein unkempt homolog, zinc fingers 1-6, SBP tag (UNK, Homo sapiens, UniProt Q9C0B0, residues 30-357)
Chain of UniProt Q9C0B0 (30-357, looked up): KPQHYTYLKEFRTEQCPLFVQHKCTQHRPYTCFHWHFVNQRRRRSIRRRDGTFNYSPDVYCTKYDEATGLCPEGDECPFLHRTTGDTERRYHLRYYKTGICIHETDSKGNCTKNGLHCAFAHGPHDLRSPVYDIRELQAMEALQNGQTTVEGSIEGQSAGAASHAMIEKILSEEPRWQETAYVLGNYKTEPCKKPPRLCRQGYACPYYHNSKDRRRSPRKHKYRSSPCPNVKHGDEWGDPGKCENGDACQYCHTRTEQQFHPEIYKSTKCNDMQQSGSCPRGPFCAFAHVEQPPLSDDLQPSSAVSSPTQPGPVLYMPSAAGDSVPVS
Method: RNA Bind-n-Seq
Molecule type: RNA
Matrix: in vitro
Concentration: 100 nM
Setting: RNA with constant flanks, vertebrate orthologous sites, ends assumed
Relative to: input RNA pool
Reading: higher = stronger binding
| Sequence | bound/input enrichment [ratio] |
| --- | --- |
| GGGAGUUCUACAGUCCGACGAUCUUCAGGCACAACUGACUGGUUCACAGCAUUCCUUACACAGUUAUCUAUCAAAUGCAAGUGUGGUUAAUUUUCAGGAAACAAGCAGGCAGUCAUCUUUAUCCUGUAACCCAAUUGGAGAUUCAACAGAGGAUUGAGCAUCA | 1.05 |
| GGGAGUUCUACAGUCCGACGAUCAUUUACACUAAUACUGAGGUUACAGUUAAAAGGAUAUCCAAGGUGAUAAUAAAGUGUGUGUUGGUAGUUACUAAAAGAACUUUAGCUAUUACUGCCUUGUAUUUCUAUCCCUUGUUUCAGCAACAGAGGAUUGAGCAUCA | 0.226 |
| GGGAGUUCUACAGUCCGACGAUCAAGAUGGUGGUUGUACAUUAUUUCAUUUAGAAAAUAUAAAAAUUCAUUUUGUUUUGAAGCUAGGUGUUAAACUGGAAUAGCUCUUAUACCCCAGAGAAUGGGGCAAUUGUGCCCUUCCCUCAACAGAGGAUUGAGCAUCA | 2.12 |
| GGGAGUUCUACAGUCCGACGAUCUAUGAAAAGGCUGGAACCCUCCCACCACUUUGCUUCUCUUCACUGGAGGCGUCUGACACCUAGUUUCUCGUUUUUGUUAAAUUGAUUUCUUGUAACAUCAAAUAGGAAUGCUAACUGAUCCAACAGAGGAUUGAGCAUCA | 0.428 |
| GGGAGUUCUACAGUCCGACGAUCAUCCCUCAGUGACAGUAUGCCAUCUGUAGCAGACUCCCACUCUAGUCAUUUUUCUGAAUUUAGUUGUUCUGACCUAGAAAGCAUGAAAACUUCUUGUAGCCAUGGUUCCAAUGAUUAUCACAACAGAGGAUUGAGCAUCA | 3.28 |
| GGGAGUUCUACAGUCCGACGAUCGAAAAUGGCUUCUGCUCCAUUAAAAAAGAAGAAGAAUCCCCCAAAUAUAAAACCUCUAAAUAGCUAUUUUUGAAGUUAAAAUGUUUAAAUUUUGUAAAUUAGCUGUUGCUACUACACAACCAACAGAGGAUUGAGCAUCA | 0.647 |
| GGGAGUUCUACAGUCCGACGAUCUUUUUAUUGAUCAGGUCUGUAAAUGUGUACUAAAAAAAUCAGAGUUUAUUUAUAAACAUAAAGUUUAUUUAAAGAGAAGGUCUUUUCCUCAAUGAUAUCAUGGUAUGCAUUAAUUCCAUUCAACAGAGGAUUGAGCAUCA | 0.151 |
| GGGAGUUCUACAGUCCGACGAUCGGUUGAUGUUCUGAAGAAUCACUUGGUAAAAGAAGGUCGAGUAGAUGAAGAAAUUGCGCUUAGAAUUAUCAACGAAGGUGCUGCCAUCCUUCGGAGAGAGAAAACCAUGAUAGAAGUAGACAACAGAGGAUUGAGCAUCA | 1.05 |

Set 2
Target: RNA binding protein fox-1 homolog 2, RRM domain, GST-SBP tag (RBFOX2, Homo sapiens, UniProt O43251-10, residues 100-194)
Method: RNA Bind-n-Seq
Molecule type: RNA
Matrix: in vitro
Concentration: 365 nM
Setting: natural RNA segment, single round, ends assumed
Relative to: no-protein control
Reading: higher = stronger binding
Residues (chain): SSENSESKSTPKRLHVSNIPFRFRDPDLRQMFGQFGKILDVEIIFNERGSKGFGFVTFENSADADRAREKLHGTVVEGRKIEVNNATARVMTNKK
| Sequence | RBNS enrichment (R) |
| --- | --- |
| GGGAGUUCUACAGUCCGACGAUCACUUGAAGAAUUUAAUAGGUACAGAAGUUUAUUCUGGAUAAUAAAUAAAUAAGGAUCACACUGUAUUAGGGGUUAUGGCAACAUUAUUGAAUUUUUUAUGUACAUAAAGCUGGAAUUCUCGGGUGCCAA | 0.642 |
| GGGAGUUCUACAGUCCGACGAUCCCUUACCCUUUCUGUGUCCAUUGCUGGCCAUGGUCACUGAACUUGAAAUCACAGCCCUGCCAUUGGAGUGGGCGUUUGGAAUCCCUAGUGCUCCUGCUUUCAGUCCCCUCUGGAAUUCUCGGGUGCCAA | 0.513 |
| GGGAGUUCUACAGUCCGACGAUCUGCACUCUUGGCUGGUGUGAGUCAGCUACAGAGAAGGUAAUACGCCAUGUGGGAGGCCAAGGAGGCUGCAGUGAGACUCUUCCACGGAACCAUGACGCUAGUGCAGUGACUGGAAUUCUCGGGUGCCAA | 0.376 |
| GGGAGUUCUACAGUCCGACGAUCGGUGAUUGUUCAGGUUGUAGAAUGCGCAUUUUACAUUGUUUAUGAUAAUUGAAGGGUACUUCUGUCUGCUCCAAUUUCCAUUCCUUGGUAUACUCAGUAUGUCCUAGUAAUGGAAUUCUCGGGUGCCAA | 0.523 |
| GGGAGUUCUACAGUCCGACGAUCCCAUCAAGAACCAAGUUCACCUUCAGCUCCUGUGGCCCCGCCCCCAGGCUGGAGUCAGAAAUGUUUCCCAAAGAGUGAGUCUUUUGCUUUUGGCAAAACGCUACUUAAUCUGGAAUUCUCGGGUGCCAA | 0.181 |
| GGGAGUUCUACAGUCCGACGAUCCUGCCAACCUUUUCCCCCCAAGGGAAAAAAUAUACGCAAGUAUAAAGCAUCUACAUCAAUGUUUAUAAAGCAAUCAUUUGUGAACGCCGUGAUGCUGUUUUGUAACACAAUGGAAUUCUCGGGUGCCAA | 0.348 |
| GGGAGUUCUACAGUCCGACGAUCCCAUUUGUGAUCAGCAUUGUGACUUGGAGAUAAUAAAAUUUAGACUAUAAACUUGGCUCCCUUGCCAGUGUUUUGCAUGAGUCUUGAUUUGGGAGGGAGGGAAGAGGACUUGGAAUUCUCGGGUGCCAA | 32.9 |
| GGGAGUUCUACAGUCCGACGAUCCUGAGGCAGCAGUGUGAGGCCAGGGCAGAGUGAGACCCAGCCCUCAUCCCGAGCACCUCCACAUCCUCCACGUUCUGCUCAUCAUUCUCUGUCUCAUCCAUCAUCAUGUGUGGAAUUCUCGGGUGCCAA | 0.422 |
| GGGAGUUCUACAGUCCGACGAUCUUAGCACUCUCAAAUUUCAGGUUUGUAAAACACAGUUUUUGUUUUGUGUUCUGGCAAAGUGAUCUCAACAUGUAAGUAGUUGCAGUAAAACACAGGGGCAAAGGAAGACAUGGAAUUCUCGGGUGCCAA | 0.792 |

Set 3
Target: Centromere-binding protein 1, full length, N-terminal tag (CBF1, Saccharomyces cerevisiae, UniProt P17106, residues 1-351)
Chain of UniProt P17106 (whole entry, looked up): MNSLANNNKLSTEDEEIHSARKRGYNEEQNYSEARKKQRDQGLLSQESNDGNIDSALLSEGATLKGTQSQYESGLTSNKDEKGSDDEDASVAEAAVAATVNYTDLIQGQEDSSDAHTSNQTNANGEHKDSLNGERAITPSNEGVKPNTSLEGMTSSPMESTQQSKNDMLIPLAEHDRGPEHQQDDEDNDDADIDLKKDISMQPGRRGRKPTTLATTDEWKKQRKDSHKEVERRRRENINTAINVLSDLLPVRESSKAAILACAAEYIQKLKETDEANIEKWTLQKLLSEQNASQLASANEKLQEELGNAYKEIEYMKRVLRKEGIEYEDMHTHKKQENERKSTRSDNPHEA
Method: protein-binding microarray
Molecule type: double-stranded DNA, one strand shown
Matrix: in vitro
Concentration: 0.8 µM
Setting: whole 60-bp probe, no competitor
Reading: higher = stronger binding
| Sequence | fluorescence intensity |
| --- | --- |
| GAAACAATCGATCAGTGCGTGCCTTTAATACTTTAGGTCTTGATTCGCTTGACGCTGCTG | 556 a.u. |
| CTATTTTCAAATCCATCCGTGACTTCTATGTCTTTCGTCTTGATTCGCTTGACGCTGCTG | 716 a.u. |
| GAATGACGCAGACGTAACATCAGTCATCAGTTATAGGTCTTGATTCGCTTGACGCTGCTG | 549 a.u. |
| TGTACGAAGCTATTACATCAGACTATAGTAGTTAGGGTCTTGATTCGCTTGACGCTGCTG | 524 a.u. |
| TGTACGAAGCTATAAAACGTGAGTATAGTAGTTAGGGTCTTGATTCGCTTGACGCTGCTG | 612 a.u. |
| GAAACTGATACATATAACGTGTTGGAGTCGTATTAGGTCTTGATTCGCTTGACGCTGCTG | 566 a.u. |
| GAATCTTTCTTCTTTCACGTGTTCTTTTTGTCTTAGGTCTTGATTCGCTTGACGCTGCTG | 5020 a.u. |
| TGTACGAAGCTATTAAACCACATTATAGTAGTTAGGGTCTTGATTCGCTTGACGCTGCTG | 503 a.u. |
| GAAATCACAAAAAGTCACCTGATGGACCTTATGTAGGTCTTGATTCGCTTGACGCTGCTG | 3760 a.u. |
| CTACAAAAAGAAAAGAACACCACGACTAATAAATTCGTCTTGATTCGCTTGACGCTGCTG | 564 a.u. |
| GAATAGAGCCAGCATCAGATGCAAAGCCATGCATAGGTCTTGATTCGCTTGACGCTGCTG | 483 a.u. |
| CTATTTGCGTTATGAAACGTGATGCTTCGATATTTCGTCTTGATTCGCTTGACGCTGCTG | 917 a.u. |
| TGTACGAAGCTATGCCTGACCACTATAGTAGTTAGGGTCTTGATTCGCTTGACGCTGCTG | 490 a.u. |
| CTATGGCGATCGAAGCACGTGATCAGTTTTCCATTCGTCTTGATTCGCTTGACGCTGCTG | 24700 a.u. |
| CTACACTGGAACGGTGATGTAATATGTAGATAGTTCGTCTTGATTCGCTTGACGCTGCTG | 567 a.u. |
| CTATTTAACTAGAGAGTGGTGATGATTTATTGATTCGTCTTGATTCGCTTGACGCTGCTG | 535 a.u. |
| CCTAACTACTATAAGCACGTCGCATAGCTTCGTACAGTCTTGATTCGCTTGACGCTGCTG | 542 a.u. |

Set 4
Target: Sal-like protein 4, full length isoform B (SALL4, Homo sapiens, UniProt Q9UJQ4-2, residues 1-616)
Method: universal PBM
Molecule type: double-stranded DNA, one strand shown
Matrix: in vitro
Concentration: not given
Setting: 8-mer, flanks averaged, mean of replicates
Reading: higher = stronger binding
| Sequence | E-score |
| --- | --- |
| GACGGAAA | 0.0236 |
| TACCGTGA | -0.101 |
| AATAATTG | 0.409 |
| GCCCACCA | -0.158 |
| TCACCTGA | -0.0364 |
| CATCCAGA | -0.0926 |
| CAGGTCAG | -0.141 |
| CAATGTTA | 0.238 |
| AGAAAGCT | -0.00444 |
| CTGGGAAG | -0.167 |
| CTGGCTCA | -0.168 |
| AGTTACCG | 0.00427 |
| CGTGAACG | -0.154 |
| GACACAGA | -0.0317 |
| GGCGTATA | 0.0163 |
| CGCTGGAA | -0.175 |
| CAATAGCG | -0.166 |
| AGAGTCGG | -0.162 |
| CAGTATTC | 0.101 |
| CGGCAGCC | -0.433 |
| ACAATCGA | -0.00124 |
| GGAGTTGA | -0.00898 |
| ATACCGAG | 0.0193 |
| ATGTCCCA | -0.159 |
| AGACCCTG | -0.215 |

A few entries again (set 3):
| Sequence | fluorescence intensity |
| --- | --- |
| GAATCTTTCTTCTTTCACGTGTTCTTTTTGTCTTAGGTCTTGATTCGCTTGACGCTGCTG | 5020 a.u. |
| TGTACGAAGCTATTAAACCACATTATAGTAGTTAGGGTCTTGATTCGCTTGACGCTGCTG | 503 a.u. |
| GAAATCACAAAAAGTCACCTGATGGACCTTATGTAGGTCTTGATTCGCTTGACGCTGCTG | 3760 a.u. |
| CTACAAAAAGAAAAGAACACCACGACTAATAAATTCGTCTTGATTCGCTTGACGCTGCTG | 564 a.u. |
| GAATAGAGCCAGCATCAGATGCAAAGCCATGCATAGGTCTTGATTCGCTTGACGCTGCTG | 483 a.u. |
